# Experimental data from different studies.
# Protocols differ between the studies behind these lines. Values joined by “and” are separate records of one study, mostly repeats; a detail may differ.
Compound,tested on,assay,system,setting,how to read,measurement,value
Fc1ccc(Nc2nc(NC3CCCCC3)c3cc(Br)ccc3n2)cc1F,β2AR/β1AR ECL1/3 chimera,"β-arrestin2 recruitment, antagonist, BRET",,added: isoprenaline 1 µM,,pIC50,6.6
COC(=O)c1ccc(CN2CCCC(CCC(=O)NCc3ccc(C)o3)C2)cc1 (stereo not drawn),Trypanosoma cruzi,"reporter mRNA translation, inhibitor, item: capped polyadenylated Renilla luciferase mRNA",cell-free extract,concentration not given,reference: positive over negative control,translation activity,108% and 106% and 93.2% and 111%
c1ccc(-c2n[nH]cc2-c2ccnc3ccccc23)nc1,RCK2 (Candida albicans),"kinase binding, MIB/MS competition",Candida albicans lysate,10 µM,reference: DMSO,log2 fold change,-0.2
CC[C@H]1OC(=O)[C@H](C)[C@@H](OC(=O)Cc2ccccc2[N+](=O)[O-])[C@H](C)[C@@H](O[C@@H]2O[C@H](C)C[C@H](N(C)C)[C@H]2O)[C@](C)(OC)C[C@@H](C)C(=O)[C@H](C)[C@@H](O)[C@]1(C)O,Escherichia coli ribosome,"in vitro transcription-translation, inhibitor",,,,IC50,150 nM
Cc1[nH]nc2c1N=C(c1ccccc1Cl)c1cnc(N3CCOCC3)cc1N2,"rolipram binding site, rat",radioligand binding,,10 µM,,inhibition,75%
C1=[N+]2CCC[N+]3=Cc4ccc5[n]4[Au-]23[n]2c1ccc2-c1nc2ccccc2nc1-5.F[P-](F)(F)(F)(F)F,human ACTN3 291-bp linear dsDNA,high-resolution melt,,81.6 nM,,melting temperature,83.1 °C
Cc1ccc(-c2cn(Cc3cccc(Cl)c3)c3[n+]2CCC3)cc1.[Br-],Trypanosoma cruzi,"reporter mRNA translation, inhibitor, item: Renilla luciferase mRNA",cell-free extract,"concentration not given, test 2",reference: positive over negative control,translation activity,86.8% and 151%
Nc1ncc(-c2cc(-c3cnn(CC(F)(F)F)c3)ncc2F)nc1C(=O)NC1CNCC(F)C1 (stereo not drawn),RIOK2,KINOMEscan,,1 µM,reference: DMSO control,remaining binding,100%
CN1CCCNC(=O)CC2(CCCCC2)CC(=O)NCCCN(C)CCCNc2cccc3c2C(=O)c2cccc(c2C3=O)NCCC1,telomeric G-quadruplex DNA,"DNA thermal stabilisation, CD melting",,"concentration not given, pH 7.4, added: 100 mM NaCl",,ΔTm,< 0.5 °C
CC1(C)OCCc2cc(C(=O)N3CCC(c4nc(-c5ccccc5)n[nH]4)CC3)ccc21,FSP1 L323A,"resorufin formation, inhibitor",,"added: NADH, resazurin",,IC50,no inhibition
O=C(O)C(Cc1c[nH]cn1)N1C(=O)c2ccc3c4ccc5c6c(ccc(c7ccc(c2c37)C1=O)c64)C(=O)N(CCN1CCCCC1)C5=O (stereo not drawn),human TERT promoter G-rich DNA,"G-quadruplex induction, duplex-quadruplex competition, PAGE",,pH 6,,concentration for near-complete G-quadruplex formation,≥ 8 µM
CC[C@H]1OC(=O)[C@H](C)[C@@H](OC(=O)Cc2ccc(N)cc2)[C@H](C)[C@@H](O[C@@H]2O[C@H](C)C[C@H](N(C)C)[C@H]2O)[C@](C)(OC)C[C@@H](C)C(=O)[C@H](C)[C@@H](O)[C@]1(C)O,Escherichia coli ribosome,"in vitro transcription-translation, inhibitor",,,,IC50,210 nM
O=S(=O)(NCc1ccncc1)c1ccc(C2CCCCC2)cc1,IRF8 (human),"biotin probe pulldown, item: IRF8",,500 µM,reference: DMSO,protein binding,no effect
C1=[N+]2CCCC[N+]3=Cc4ccc5[n]4[Au-]23[n]2c1ccc2-c1nc2ccccc2nc1-5.F[P-](F)(F)(F)(F)F,human ACTN3 291-bp linear dsDNA,high-resolution melt,,2.08 µM,,melting temperature,83.8 °C
C=CC(=O)Nc1cccc(Cn2ncc3cnc(Nc4cnn(CCOC)c4)nc32)c1,MEK4 human,"binding, KINOMEscan",,100 nM,lower = stronger binding,percent of control,100%

# Excerpt of the above:
Compound,tested on,assay,system,setting,how to read,measurement,value
C1=[N+]2CCCC[N+]3=Cc4ccc5[n]4[Au-]23[n]2c1ccc2-c1nc2ccccc2nc1-5.F[P-](F)(F)(F)(F)F,human ACTN3 291-bp linear dsDNA,high-resolution melt,,2.08 µM,,melting temperature,83.8 °C
CN1CCCNC(=O)CC2(CCCCC2)CC(=O)NCCCN(C)CCCNc2cccc3c2C(=O)c2cccc(c2C3=O)NCCC1,telomeric G-quadruplex DNA,"DNA thermal stabilisation, CD melting",,"concentration not given, pH 7.4, added: 100 mM NaCl",,ΔTm,< 0.5 °C
